Results of several laboratories.
Protocols differ between the studies behind these lines.
Organism: Bacillus subtilis

C=C1NC(=O)C2C[S+]([O-])CC3NC(=O)C(CSC(C)C(NC(=S)C(Cc4cnc[nH]4)NC(=O)c4csc(C(C)NC(C)=O)n4)C(=O)N[C@H](CC(C)C(=O)NC(=O)CC(C(=O)O)NC(=O)C(C)NC3=O)C(=O)N2)NC(=O)[C@@H]2CCCN2C(=O)[C@@H](CC(C)C)NC1=O (stereo partly shown)  MIC (bacterial growth; 168): > 32 µg/mL
CC(=O)N[C@@H](CC(C)C)C(=O)N[C@H]1CSSC[C@@H](C(=O)N2CCC[C@H]2C(N)=O)NC(=O)[C@H]([C@@H](C)O)NC(=O)[C@H](C(C)C)NC(=O)[C@H]([C@@H](C)O)NC(=O)CNC(=O)[C@H](CC(C)C)NC(=O)[C@H](Cc2ccccc2)NC(=O)[C@H](Cc2ccc(O)cc2)NC(=O)[C@H](CC(C)C)NC(=O)[C@H](CCCCN)NC(=O)[C@H](Cc2ccccc2)NC(=O)[C@H](CCCNC(=N)N)NC(=O)[C@H](CCC(N)=O)NC(=O)[C@H](CC(C)C)NC(=O)[C@H](CCCCN)NC(=O)[C@@H]2CCCN2C(=O)[C@H](CCCCN)NC(=O)[C@H](C(C)C)NC(=O)[C@H](CC(N)=O)NC(=O)[C@H](Cc2ccc(O)cc2)NC(=O)[C@H]([C@@H](C)O)NC1=O  MIC (broth dilution; CGMCC strain; 24 h): 2.5 to 5 µM
CC[C@H](C)[C@H](N)C(=O)N[C@@H](C)C(=O)N[C@@H](CC(C)C)C(=O)N[C@H](CCC(=O)O)C(=O)N[C@H](C(=O)N[C@H]1CCCCNC(=O)[C@H](CC(N)=O)NC(=O)[C@@H](CC(=O)O)NC(=O)[C@H](Cc2c[nH]cn2)NC(=O)[C@@H](Cc2ccccc2)NC(=O)[C@H]([C@@H](C)CC)NC(=O)[C@@H](CCCN)NC1=O)[C@@H](C)CC  MIC (168; 18 h, 37 °C, 0.3 mM ZnSO4 LB): > 64 µg/mL
CN[C@H](CC(C)C)C(=O)N[C@H]1C(=O)N[C@@H](CC(N)=O)C(=O)N[C@H]2C(=O)N[C@H]3C(=O)N[C@H](C(=O)N[C@H](C(=O)O)c4cc(O)cc(O)c4-c4cc3ccc4O)[C@H](O)c3ccc(c(Cl)c3)Oc3cc2cc(c3O[C@@H]2O[C@H](CO)[C@@H](O)[C@H](O)[C@H]2O[C@H]2C[C@](C)(NCc3ccc(OCc4cn(CCCCC(=O)N[C@H](C(=O)N[C@@H](CCN)C(=O)N[C@H]5CCNC(=O)[C@H]([C@@H](C)O)NC(=O)[C@H](CCN)NC(=O)[C@H](CCN)NC(=O)[C@H](CC(C)C)NC(=O)[C@@H](CC(C)C)NC(=O)[C@H](CCN)NC5=O)[C@@H](C)O)nn4)c(OC)c3)[C@H](O)[C@H](C)O2)Oc2ccc(cc2Cl)[C@H]1O  MIC (broth microdilution; 168, cation-adjusted Mueller-Hinton broth): 0.093 µM
CC[C@H](C)[C@@H]1NC(=O)[C@H](C(C)C)NC(=O)[C@H](C(C)C)NC(=O)[C@H](CC(C)C)NC(=O)C[C@@H](C(=O)N[C@@H](Cc2c[nH]c3ccccc23)C(=O)N[C@@H](CC(N)=O)C(=O)N[C@@H](C)C(=O)N2CCC[C@H]2C(=O)NCC(=O)N[C@@H](Cc2c[nH]c3ccccc23)C(=O)N[C@@H](Cc2ccccc2)C(=O)O)NC(=O)[C@H](C)NC(=O)[C@H](CCC(N)=O)NC(=O)[C@H](C(C)C)NC1=O  MIC (ATCC 6051): > 32 µg/mL
CC[C@H](C)[C@H](NC(=O)[C@H](Cc1c[nH]c2ccccc12)NC(=O)[C@H](Cc1ccc(O)cc1)NC(=O)[C@H](CCCCN)NC(=O)[C@H](CC(C)C)NC(=O)[C@@H](N)CO)C(=O)N[C@@H](CCCNC(=N)N)C(=O)N[C@@H](Cc1ccc(O)cc1)C(=O)N[C@@H](CCCCN)C(=O)N[C@@H](CCCNC(=N)N)C(=O)N[C@@H](CCC(N)=O)C(=O)NCC(=O)N[C@@H](C)C(=O)N[C@@H](C)C(=O)N[C@@H](CCCNC(=N)N)C(=O)N[C@@H](Cc1ccccc1)C(N)=O  MIC (broth dilution; KCTC 3068): 6.3 µM
CC(C)C[C@H](NC(=O)[C@H](CCCCN)NC(=O)[C@H](C)NC(=O)[C@H](CC(C)C)NC(=O)[C@H](CCCCN)NC(=O)[C@H](CCC(N)=O)NC(=O)[C@H](CCCCN)NC(=O)[C@H](CC(C)C)NC(=O)[C@H](CCCCN)NC(=O)[C@H](CCC(N)=O)NC(=O)[C@H](CC(C)C)NC(=O)[C@H](CCCCN)NC(=O)[C@H](C)NC(=O)[C@H](CCCCN)NC(=O)[C@H](CC(C)C)NC(=O)[C@H](CCCCN)NC(=O)[C@H](C)NC(=O)[C@H](CC(C)C)NC(=O)[C@H](CCCCN)NC(=O)[C@H](CCC(N)=O)NC(=O)[C@@H](N)CCCCN)C(N)=O  MIC (broth microdilution; ATCC 6633; 24 h): 6.2 µM
CC[C@H](C)[C@H](N)C(=O)N[C@@H](CCCNC(=N)N)C(=O)N[C@H](C(=O)N[C@@H](Cc1c[nH]c2ccccc12)C(=O)N[C@@H](CCCCN)C(=O)N[C@@H](CCCCN)C(=O)N[C@H](C(=O)N[C@H](C(=O)N[C@@H](CCCNC(=N)N)C(=O)N[C@@H](CCCCN)C(=O)N[C@@H](Cc1c[nH]c2ccccc12)C(=O)N[C@@H](CCCCN)C(=O)N[C@@H](C)C(=O)N[C@H](C(=O)N[C@@H](Cc1c[nH]c2ccccc12)C(=O)N[C@@H](Cc1c[nH]cn1)C(N)=O)[C@@H](C)CC)C(C)C)[C@@H](C)CC)C(C)C  MIC (broth dilution; KCTC 3068): 50 µM
CC[C@H](C)[C@H](NC(=O)[C@H](Cc1c[nH]c2ccccc12)NC(=O)[C@H](CCCCN)NC(=O)[C@H](CC(C)C)NC(=O)[C@@H](NC(=O)[C@@H](NC(=O)CNC(=O)[C@H](CCCCN)NC(=O)[C@H](Cc1c[nH]cn1)NC(=O)[C@H](CCCCN)NC(=O)[C@H](Cc1c[nH]c2ccccc12)NC(=O)[C@H](C)NC(=O)[C@H](CC(C)C)NC(=O)[C@H](CO)NC(=O)[C@@H](NC(=O)[C@H](Cc1ccc(O)cc1)NC(=O)[C@H](CCCCN)NC(=O)[C@H](CCC(N)=O)NC(=O)CNC(=O)[C@H](CCCCN)NC(=O)[C@@H](NC(=O)[C@H](C)NC(=O)[C@H](CC(C)C)NC(=O)[C@H](Cc1ccccc1)NC(=O)[C@H](CCC(N)=O)NC(=O)[C@@H](NC(=O)[C@H](CC(C)C)NC(=O)[C@H](CCCCN)NC(=O)[C@H](CCSC)NC(=O)[C@H](Cc1ccccc1)NC(=O)[C@H](C)NC(=O)[C@H](C)NC(=O)[C@@H](N)CCSC)[C@@H](C)CC)[C@@H](C)O)C(C)C)[C@@H](C)O)[C@@H](C)CC)C(=O)N[C@@H](CC(N)=O)C(N)=O  MIC (broth microdilution; ATCC 6633; 24 h, 37 °C): 6 µg/mL
C#CCOc1ccc(CN[C@@]2(C)C[C@H](O[C@H]3[C@H](Oc4c5cc6cc4Oc4ccc(cc4Cl)[C@@H](O)[C@@H](NC(=O)[C@@H](CC(C)C)NC)C(=O)N[C@@H](CC(N)=O)C(=O)N[C@H]6C(=O)N[C@H]4C(=O)N[C@H](C(=O)N[C@H](C(=O)O)c6cc(O)cc(O)c6-c6cc4ccc6O)[C@H](O)c4ccc(c(Cl)c4)O5)O[C@H](CO)[C@@H](O)[C@@H]3O)O[C@@H](C)[C@H]2O)cc1OC  MIC (broth microdilution; 168, cation-adjusted Mueller-Hinton broth): 0.308 µM

A few entries again:
C=C1NC(=O)C2C[S+]([O-])CC3NC(=O)C(CSC(C)C(NC(=S)C(Cc4cnc[nH]4)NC(=O)c4csc(C(C)NC(C)=O)n4)C(=O)N[C@H](CC(C)C(=O)NC(=O)CC(C(=O)O)NC(=O)C(C)NC3=O)C(=O)N2)NC(=O)[C@@H]2CCCN2C(=O)[C@@H](CC(C)C)NC1=O (stereo partly shown)  MIC (bacterial growth; 168): > 32 µg/mL
